Assay results from different studies.
Parts stem from different laboratories: compare values within a part only.

Block 1 — method: protein binding microarray; molecule type: double-stranded DNA, one strand shown; sample: in vitro; tested at: not given; reference: not given; reading: higher = stronger binding; quantity: E-score
Target: Histone acetyltransferase KAT6A, both winged helices, GST fusion (KAT6A, Homo sapiens, UniProt Q92794, residues 1-181)
Notes: 8-mer, flanks averaged, mean of 2 arrays, mostly near background
Target sequence (chain): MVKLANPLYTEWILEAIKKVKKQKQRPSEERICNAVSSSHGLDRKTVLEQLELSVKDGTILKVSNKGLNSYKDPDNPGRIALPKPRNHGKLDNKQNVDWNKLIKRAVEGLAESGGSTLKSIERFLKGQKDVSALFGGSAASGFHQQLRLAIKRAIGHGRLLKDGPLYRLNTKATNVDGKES
ACATGTGC: 0.0421
CGGGGTGA: -0.00942
CATATTTC: -0.178

Block 2 — method: universal PBM; molecule type: double-stranded DNA, one strand shown; sample: in vitro; tested at: not given; reading: higher = stronger binding; quantity: E-score
Target: Sal-like protein 4, full length isoform B (SALL4, Homo sapiens, UniProt Q9UJQ4-2, residues 1-616)
Notes: 8-mer, flanks averaged, mean of replicates
Target sequence (chain): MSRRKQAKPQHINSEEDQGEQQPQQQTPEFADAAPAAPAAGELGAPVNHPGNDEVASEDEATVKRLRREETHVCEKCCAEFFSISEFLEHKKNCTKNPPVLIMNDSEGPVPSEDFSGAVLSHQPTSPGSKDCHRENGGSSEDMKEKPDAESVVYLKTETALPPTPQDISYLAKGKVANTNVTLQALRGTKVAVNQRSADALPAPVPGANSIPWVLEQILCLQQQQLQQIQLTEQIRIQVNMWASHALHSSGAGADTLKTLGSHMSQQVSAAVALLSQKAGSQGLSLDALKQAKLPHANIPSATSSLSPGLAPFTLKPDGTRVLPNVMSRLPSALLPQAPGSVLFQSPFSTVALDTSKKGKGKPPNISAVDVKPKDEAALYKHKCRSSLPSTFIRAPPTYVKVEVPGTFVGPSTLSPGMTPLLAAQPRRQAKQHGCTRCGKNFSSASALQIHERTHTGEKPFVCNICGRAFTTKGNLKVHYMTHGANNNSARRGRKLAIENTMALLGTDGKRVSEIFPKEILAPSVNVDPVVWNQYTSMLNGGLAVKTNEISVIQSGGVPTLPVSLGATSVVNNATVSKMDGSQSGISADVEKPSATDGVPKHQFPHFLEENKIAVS
GCTGACGA: -0.0773
ATGAACAT: 0.261
AGAATACG: 0.184
GAAGACCA: -0.207

Block 3 — method: protein-binding microarray; molecule type: double-stranded DNA, one strand shown; sample: in vitro; tested at: 940 nM top; notes: 60-bp whole probe; with: salmon DNA 0.4 mg/ml; reference: random background probes; reading: higher = stronger binding; quantity: fitted relative affinity
Target: Interferon regulatory factor 5, full length, phosphomimetic (IRF5, Homo sapiens, UniProt Q13568-2, residues 1-514, S451D/S453D/S456D/S462D)
GCCTAGCACTCAATAATGGATATATAACTGTGCTAGGTCTTGATTCGCTTGACGCTGCTG: 0.0619 z-score
GCCTAGCACTTCGGTCTCCTTTTCCTTTAGTGCTAGGTCTTGATTCGCTTGACGCTGCTG: 0.906 z-score
GCCTAGCACGAGGGACTGGGGTTTCGGGACGTGCTAGTCTTGATTCGCTTGACGCTGCTG: 1.8 z-score
GCCTAGCACTTAGGTAACCTTTTCCTTTAGTGCTAGGTCTTGATTCGCTTGACGCTGCTG: -0.0153 z-score

Other studies, line by line
PhoQ, residues 284 288 289 292 302 303 QWQEDG  fold induction (PhoP, residues 12 14 15 18 19 SGWQI (Escherichia coli, UniProt P23836); Sort-seq, measured: YFP reporter; E. coli; PhoQ-PhoP variant library, with: 10 µM Mg2+; reference: high Mg2+ state, higher = stronger signaling): 0.82

A few entries again (block 3):
GCCTAGCACTTAGGTAACCTTTTCCTTTAGTGCTAGGTCTTGATTCGCTTGACGCTGCTG: -0.0153 z-score
